# Measured values collected from several papers.
# Each line is one published result; not all experiments were run side by side. “And” joins repeats or separate records; there may be more than shown. ± gives the spread as reported.
# UniProt P02769, sequence (whole entry, looked up): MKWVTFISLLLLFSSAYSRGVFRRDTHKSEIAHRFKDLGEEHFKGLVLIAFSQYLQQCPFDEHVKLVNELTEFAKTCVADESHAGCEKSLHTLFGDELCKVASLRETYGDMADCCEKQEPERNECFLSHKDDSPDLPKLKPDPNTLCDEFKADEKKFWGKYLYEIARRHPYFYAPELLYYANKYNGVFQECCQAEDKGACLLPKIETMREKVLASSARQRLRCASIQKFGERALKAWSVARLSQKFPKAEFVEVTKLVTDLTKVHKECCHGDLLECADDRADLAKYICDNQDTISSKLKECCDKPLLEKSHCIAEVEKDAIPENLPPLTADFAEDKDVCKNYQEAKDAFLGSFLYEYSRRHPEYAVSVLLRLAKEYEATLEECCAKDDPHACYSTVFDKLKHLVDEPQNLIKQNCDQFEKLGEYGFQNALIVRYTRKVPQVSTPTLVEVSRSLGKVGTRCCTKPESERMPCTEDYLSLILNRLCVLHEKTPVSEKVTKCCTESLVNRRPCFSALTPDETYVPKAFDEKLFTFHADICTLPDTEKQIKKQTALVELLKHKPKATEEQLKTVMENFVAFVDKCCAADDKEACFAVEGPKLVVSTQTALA
SMILES,target or system,assay,test system,conditions,how to read,quantity,result
O=C(Nc1cnccc1-c1ccc([18F])nc1)c1ccnc(NC(=O)C2CC2)c1,,,"mice, transgenic, GSK-3β, early-stage, skin","intravenous, dose not given, 120 min, with: tariquidar 15 mg/kg i.v. pre-dose",,SUV,0.103
N#C[C@@H]1CC(F)(F)CN1C(=O)CNC(=O)c1ccnc2c(NC(=O)CCOCCOCCOCCOCCOCCOCCNC(=O)[C@H](CCCCNC(=O)CN3CCN(CC(=O)[O-])CCN(CC(=O)[O-])CCN(CC(=O)[O-])CC3)NC(=O)CCCc3ccc(I)cc3)cccc12.[177Lu+3],U-87 MG tumour model,,"host not given, heart","48 h, tumour-bearing",,tracer uptake,0.14 %ID/g
O=C1NC2(CC2)COc2ncc(F)cc2[C@H]2COCCN2c2ccn3ncc1c3n2,Salmonella typhimurium,Ames test,TA1535,"5000 µg/plate, 48 h, with: rat liver S9",,revertant colonies,9 ± 6 revertants/plate
N#C[C@@H]1CCCN1C(=O)CNC(=O)c1ccnc2ccc(OCCCN3CCN(C(=O)CCc4ccc5c(c4)CN4CCN(Cc6cc(CCC(=O)O)ccc6O)CC(=O)[O][Al-]([18F])([O]C(=O)C4)[O]5)CC3)cc12 (stereo partly shown),U-87 MG tumour model,,"host not given, pancreas","1 h, tumour-bearing",,tracer uptake,1.88 %ID/g
CCN(CC)CC#CCNc1ccnc2cc(Cl)ccc12,Salmonella typhimurium,mini-Ames test,TA97a,"250.0 µg/well, without S9",,revertants,0 revertants/well
COc1cccc(OC)c1-c1cc(C(=O)NC2(C(=O)O)C3CC4CC(C3)CC2C4)nn1-c1ccc(C(=O)N(C)CCOCCOCCN(C)C(=O)[C@H](CCCCNC(=O)[C@H](CC(C)C)NC(=O)C2OC2C(=O)O)NC(=O)CN2CCN(CC(=O)[O-])CCN(CC(=O)[O-])CCN(CC(=O)[O-])CC2)cc1C(C)C.[177Lu+3] (mixture of isomers),HT-29 tumour model,,"host not given, pancreas","7 days, tumour-bearing",,tracer uptake,0.17 %ID/g
CS(=O)(=O)c1ccc(Nc2n[nH]c3nc(-c4ccccc4)nc(N)c23)cc1,HeLa Ohio,,,72 h,,CC50,31.3 µM
CN(Cc1ccccc1)C(=O)CN1CCN(CC(=O)[O-])CCN(Cc2cccc(C(=O)[O-])n2)CC1.[18F-].[Sc+3],,,"mouse, blood","intravenous, 1 h",,tracer uptake,0.35 %ID/g
CC(C)Cc1ccc(C(C)C(=O)N[C@@H](CCCCNC(=O)CCOCCOCCOCCOCCOCCOCCNC(=O)CN2CCN(CC(=O)[O-])CCN(CC(=O)[O-])CCN(CC(=O)[O-])CC2)C(=O)Nc2cccc3c(C(=O)NCC(=O)N4CC(F)(F)C[C@H]4C#N)ccnc23)cc1.[177Lu+3] (stereo partly shown),U-87 MG tumour model,,"host not given, pancreas","48 h, tumour-bearing",,tracer uptake,0.37 %ID/g
N#C[C@@H]1CCCN1C(=O)CNC(=O)c1ccnc2ccc(OCCCN3CCN(C(=O)CCc4ccc5c(c4)CN4CCN6CC(=O)[O][68Ga-]([O]C(=O)C4)([O]5)[O]c4ccc(CCC(=O)N5CCN(CCCOc7ccc8nccc(C(=O)NCC(=O)N9CCC[C@H]9C#N)c8c7)CC5)cc4C6)CC3)cc12,U-87 MG tumour model,,"host not given, liver","2 h, tumour-bearing",,tracer uptake,2.94 %ID/g
C/C(N)=N/C(=N\S(=O)(=O)c1ccc(C(F)(F)F)cc1)N1C[C@H](c2ccccc2)C(c2ccc(Cl)cc2)=N1,,metabolic stability,"monkey, liver cytosol",,,half-life,> 2 h
Fc1ccc(Nc2n[nH]c3nc(-c4ccccc4)nc(NCc4ccccc4)c23)cc1,HeLa Ohio,,,72 h,,CC50,> 122 µM
CNC(=O)C1CCCN(C(=O)C2CC3CCC2N3C(=O)[C@@H]2C[C@@H](O)CN2C(=O)NCc2cccc(Cl)c2F)C1 (mixture of isomers),CYP3A4 (human),"inhibitor, time-dependent inhibition",,"50 µM, preincubated with NADPH, with: testosterone substrate",baseline: negative control,remaining activity,97.2%
Nc1nc(-c2ccccc2)nc2[nH]nc(Nc3ccc(O)cc3)c12,HeLa Ohio,,,72 h,,CC50,> 157 µM
C=CC(=O)Nc1cc(Nc2nccc(-c3cn(C)c4ccccc34)n2)c(OCC(F)(F)F)nc1N(C)CCN(C)C,human hepatocytes lot HC3-31,"CYP1A2 enzyme activity, inducer",,10 µM,baseline: omeprazole 100 µM,induction,39.4%
CCN(CC)c1nc(-c2ccccc2)nc2[nH]nc(Nc3ccc(F)cc3)c12,HeLa Ohio,,,72 h,,CC50,> 133 µM
OC(Cc1cc(-c2ccc(C(O)C(F)(F)F)s2)sc1-c1ccc(-c2sc(-c3ccc(C(O)C(F)(F)F)s3)cc2CC(O)C(F)(F)F)s1)C(F)(F)F (stereo not shown),primary human fetal neurons,LC-MS/MS,,"4 µM, 120 min, replicate 1",,amount in cell extract,1.78 nmol and 1.56 nmol and 2 nmol
N#C[C@@H]1CC(F)(F)CN1C(=O)CNC(=O)c1ccnc2c(NC(=O)[C@@H](N)CCCCNC(=O)CCOCCOCCOCCOCCOCCOCCNC(=O)CN3CCN(CC(=O)[O-])CCN(CC(=O)[O-])CCN(CC(=O)[O-])CC3)cccc12.[177Lu+3],U-87 MG tumour model,,"host not given, blood","48 h, tumour-bearing",,tracer uptake,0.11 %ID/g
CC(C)OCCOCc1ccc(OCC(O)CN(N=O)C(C)C)cc1 (stereo not shown),Salmonella typhimurium,Ames test,TA100,"50 µg/plate, 30 % rat S9",baseline: solvent control,revertant fold increase,0.8 fold
CN(Cc1ccccc1)C(=O)CN1CCN(CC(=O)[O-])CCN(CC(=O)[O-])CC1.[18F-].[Sc+3],,,"mouse, brain","intravenous, 1 h",,tracer uptake,0.06 %ID/g
Nc1nc(-c2ccccc2)nc2[nH]nc(Nc3cc(F)ccc3F)c12,HeLa Ohio,,,72 h,,CC50,> 148 µM
COc1cccc(OC)c1-c1cc(C(=O)NC2(C(=O)O)C3CC4CC(C3)CC2C4)nn1-c1ccc(C(=O)N(C)CCOCCN(C)C(=O)[C@H](CCCCNC(=O)[C@H](CC(C)C)NC(=O)C2OC2C(=O)O)NC(=O)CN2CCN(CC(=O)[O-])CCN(CC(=O)[O-])CCN(CC(=O)[O-])CC2)cc1C(C)C.[177Lu+3] (mixture of isomers),HT-29 tumour model,,"host not given, stomach","24 h, tumour-bearing",,tracer uptake,0.2 %ID/g
N#C[C@@H]1CC(F)(F)CN1C(=O)CNC(=O)c1ccnc2c(NC(=O)[C@H](CCCCNC(=O)CCOCCOCCOCCOCCOCCOCCNC(=O)CN3CCN(CC(=O)[O-])CCN(CC(=O)[O-])CCN(CC(=O)[O-])CC3)NC(=O)CCCc3ccc(I)cc3)cccc12.[177Lu+3],U-87 MG tumour model,,"host not given, tumour","96 h, tumour-bearing",,tracer uptake,1.53 %ID/g
Nc1nc(-c2ccccc2C(F)(F)F)nc2[nH]nc(Nc3ccc(Cl)cc3)c12,HeLa Ohio,,,72 h,,CC50,1.9 µM
C=C(NC(=O)c1csc(-c2nc3c(cc2O)-c2nc(cs2)C(=O)NC(C(C)O)C(=O)NC(=C(C)OC)c2nc(cs2)C(=O)NC2c4nc(cs4)C(=O)NC(COC(=O)c4c5c6c(cccc6n4O)COC(=O)C(OC4CC(C)(O)C(N(C)C)C(C)O4)C2OC5)c2nc-3cs2)n1)C(N)=O (stereo not shown),,,"female cynomolgus monkey, plasma","intravenous, 9 mg/kg, single dose, infusion",,AUC(0-inf),42600 ng·h/mL
O=C1C2CC3CC1CC(C(=O)N1CCN(c4ccc([N+](=O)[O-])c5ncccc45)CC1)(C3)C2,Salmonella typhimurium,Ames test,TA1535,"0.02 µg/well, without S9",baseline: vehicle,revertant fold increase,1.9
O=C([O-])CN1CCN(CC(=O)[O-])CCN(Cc2cccc(C(=O)[O-])n2)CC1.[18F-].[Sc+3],,,"mouse, heart","intravenous, 1 h",,tracer uptake,0.26 %ID/g
Nc1nc(-c2ccncc2)nc2[nH]nc(Nc3ccc(F)cc3)c12,HeLa Ohio,,,72 h,,CC50,> 156 µM
CN(C)c1ccc2c(c1)C(C)(C)c1cc(N(C)C)ccc1C21OC(=O)c2c(C(=O)O)cccc21,"Albumin (ALB, Bos taurus, UniProt P02769)","binding, fluorescence titration",PBS,,,Kd,573 ± 59 µM
Cc1nc(N)c2c(Nc3ccc(F)cc3)n[nH]c2n1,HeLa Ohio,,,72 h,,CC50,65.8 µM
CC[C@H](C)[C@@H]1NC(=O)[C@H](Cc2ccc(O)cc2)NC(=O)CCCSC[C@@H](C(=O)N(CC(=O)N[C@@H](CC(C)C)C(=O)NCC(N)=O)Cc2ccc(F)cc2)NC(=O)[C@H](CC(N)=O)NC(=O)[C@H](CCC(N)=O)NC1=O,,,"healthy human females, plasma","intranasal, 200 µg single dose",,AUC(0-last),0.056 ng·h/mL

# Repeated from above:
SMILES,target or system,assay,test system,conditions,how to read,quantity,result
O=C1NC2(CC2)COc2ncc(F)cc2[C@H]2COCCN2c2ccn3ncc1c3n2,Salmonella typhimurium,Ames test,TA1535,"5000 µg/plate, 48 h, with: rat liver S9",,revertant colonies,9 ± 6 revertants/plate
N#C[C@@H]1CCCN1C(=O)CNC(=O)c1ccnc2ccc(OCCCN3CCN(C(=O)CCc4ccc5c(c4)CN4CCN(Cc6cc(CCC(=O)O)ccc6O)CC(=O)[O][Al-]([18F])([O]C(=O)C4)[O]5)CC3)cc12 (stereo partly shown),U-87 MG tumour model,,"host not given, pancreas","1 h, tumour-bearing",,tracer uptake,1.88 %ID/g
